Experimental data of several laboratories.
Several values in a cell are separate wells, animals, samples, runs or records. ± marks the error that the study gave.
B1: α-TTP F165D/M209D; sequence looked up; chain MAEARSQPSAGPQLNALPDHSPLLQPGLAALRRRAREAGVPLAPLPLTDSFLLRFLRARDFDLDLAWRLLKNYYKWRAECPEISADLHPRSIIGLLKAGYHGVLRSRDPTGSKVLIYRIAHWDPKVFTAYDVFRVSLITSELIVQEVETQRNGIKAIFDLEGWQDSHAFQITPSVAKKIAAVLTDSFPLKVRGIHLINEPVIFHAVFSDIKPFLTEKIKERIHMHGNNYKQSLLQHFPDILPLEYGGEEFSMEDICQEWTNFIMKSEDYLSSISESIQ
Chain of UniProt P33424 (whole entry, looked up): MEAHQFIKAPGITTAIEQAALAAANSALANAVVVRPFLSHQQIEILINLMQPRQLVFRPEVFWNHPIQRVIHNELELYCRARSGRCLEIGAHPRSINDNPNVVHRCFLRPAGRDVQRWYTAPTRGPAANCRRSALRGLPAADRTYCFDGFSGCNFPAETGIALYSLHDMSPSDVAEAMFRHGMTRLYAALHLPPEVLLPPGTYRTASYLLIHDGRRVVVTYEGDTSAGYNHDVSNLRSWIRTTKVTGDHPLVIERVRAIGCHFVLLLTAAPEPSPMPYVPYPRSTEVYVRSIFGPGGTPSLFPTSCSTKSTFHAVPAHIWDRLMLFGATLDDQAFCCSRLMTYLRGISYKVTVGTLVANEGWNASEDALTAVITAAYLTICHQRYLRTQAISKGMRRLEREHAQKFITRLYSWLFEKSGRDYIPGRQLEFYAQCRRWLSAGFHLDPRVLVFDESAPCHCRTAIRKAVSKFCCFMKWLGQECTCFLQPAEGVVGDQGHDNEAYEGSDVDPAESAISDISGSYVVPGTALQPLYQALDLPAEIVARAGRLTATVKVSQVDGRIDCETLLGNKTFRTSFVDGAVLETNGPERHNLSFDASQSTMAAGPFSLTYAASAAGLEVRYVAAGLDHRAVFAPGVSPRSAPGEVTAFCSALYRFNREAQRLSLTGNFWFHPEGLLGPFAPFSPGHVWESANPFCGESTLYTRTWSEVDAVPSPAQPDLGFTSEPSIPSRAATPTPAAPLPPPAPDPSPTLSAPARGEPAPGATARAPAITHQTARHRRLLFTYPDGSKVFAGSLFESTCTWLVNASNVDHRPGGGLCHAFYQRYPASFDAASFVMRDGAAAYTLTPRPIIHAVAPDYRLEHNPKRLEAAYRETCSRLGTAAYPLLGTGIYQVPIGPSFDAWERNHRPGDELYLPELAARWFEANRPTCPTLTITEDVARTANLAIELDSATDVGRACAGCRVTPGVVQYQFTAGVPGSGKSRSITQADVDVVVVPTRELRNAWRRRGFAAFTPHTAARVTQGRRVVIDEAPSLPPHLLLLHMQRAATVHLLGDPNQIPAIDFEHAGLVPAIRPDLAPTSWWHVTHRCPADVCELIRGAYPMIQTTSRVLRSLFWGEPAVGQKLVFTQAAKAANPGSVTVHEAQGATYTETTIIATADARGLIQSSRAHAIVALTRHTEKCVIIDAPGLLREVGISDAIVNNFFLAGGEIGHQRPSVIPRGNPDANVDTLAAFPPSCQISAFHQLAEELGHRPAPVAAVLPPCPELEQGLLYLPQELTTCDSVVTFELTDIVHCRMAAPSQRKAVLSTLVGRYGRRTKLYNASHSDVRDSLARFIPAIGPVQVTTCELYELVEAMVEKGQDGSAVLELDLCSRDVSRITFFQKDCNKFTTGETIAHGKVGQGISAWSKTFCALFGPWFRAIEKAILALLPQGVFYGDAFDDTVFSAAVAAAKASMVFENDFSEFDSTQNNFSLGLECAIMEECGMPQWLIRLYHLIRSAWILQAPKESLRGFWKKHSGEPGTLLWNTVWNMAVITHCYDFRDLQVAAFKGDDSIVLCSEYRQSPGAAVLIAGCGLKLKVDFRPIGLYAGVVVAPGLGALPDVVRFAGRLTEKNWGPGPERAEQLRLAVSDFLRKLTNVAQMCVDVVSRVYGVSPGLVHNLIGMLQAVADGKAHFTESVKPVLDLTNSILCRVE
Chain of UniProt P00520 (whole entry, looked up): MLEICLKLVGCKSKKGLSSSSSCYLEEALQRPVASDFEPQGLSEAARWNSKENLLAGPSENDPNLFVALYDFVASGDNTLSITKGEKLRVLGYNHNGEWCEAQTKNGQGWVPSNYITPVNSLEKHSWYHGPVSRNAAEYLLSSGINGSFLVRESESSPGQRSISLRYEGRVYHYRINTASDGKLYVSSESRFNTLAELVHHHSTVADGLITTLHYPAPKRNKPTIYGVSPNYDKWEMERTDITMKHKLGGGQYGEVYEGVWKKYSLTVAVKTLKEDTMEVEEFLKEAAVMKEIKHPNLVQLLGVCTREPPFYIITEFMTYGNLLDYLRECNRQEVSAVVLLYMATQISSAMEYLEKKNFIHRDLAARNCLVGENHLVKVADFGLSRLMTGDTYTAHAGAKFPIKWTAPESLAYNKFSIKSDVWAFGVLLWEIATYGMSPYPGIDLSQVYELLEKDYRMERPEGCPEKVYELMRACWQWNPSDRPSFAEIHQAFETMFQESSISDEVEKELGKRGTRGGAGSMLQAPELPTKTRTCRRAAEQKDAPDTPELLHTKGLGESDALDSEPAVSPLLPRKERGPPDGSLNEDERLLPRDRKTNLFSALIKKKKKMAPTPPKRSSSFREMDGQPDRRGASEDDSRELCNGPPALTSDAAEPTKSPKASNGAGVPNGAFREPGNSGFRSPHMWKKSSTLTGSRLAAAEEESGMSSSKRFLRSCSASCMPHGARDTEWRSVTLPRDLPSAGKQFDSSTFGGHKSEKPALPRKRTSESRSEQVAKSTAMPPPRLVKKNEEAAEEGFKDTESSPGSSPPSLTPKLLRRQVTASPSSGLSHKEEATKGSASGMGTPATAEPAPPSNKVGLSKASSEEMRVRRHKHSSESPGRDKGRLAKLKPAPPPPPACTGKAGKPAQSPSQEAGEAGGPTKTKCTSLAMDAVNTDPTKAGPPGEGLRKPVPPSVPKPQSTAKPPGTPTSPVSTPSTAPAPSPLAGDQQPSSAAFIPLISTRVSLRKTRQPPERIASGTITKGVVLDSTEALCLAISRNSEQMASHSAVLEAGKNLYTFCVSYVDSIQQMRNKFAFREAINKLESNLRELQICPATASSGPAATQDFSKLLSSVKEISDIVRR
Chain of UniProt P11509 (whole entry, looked up): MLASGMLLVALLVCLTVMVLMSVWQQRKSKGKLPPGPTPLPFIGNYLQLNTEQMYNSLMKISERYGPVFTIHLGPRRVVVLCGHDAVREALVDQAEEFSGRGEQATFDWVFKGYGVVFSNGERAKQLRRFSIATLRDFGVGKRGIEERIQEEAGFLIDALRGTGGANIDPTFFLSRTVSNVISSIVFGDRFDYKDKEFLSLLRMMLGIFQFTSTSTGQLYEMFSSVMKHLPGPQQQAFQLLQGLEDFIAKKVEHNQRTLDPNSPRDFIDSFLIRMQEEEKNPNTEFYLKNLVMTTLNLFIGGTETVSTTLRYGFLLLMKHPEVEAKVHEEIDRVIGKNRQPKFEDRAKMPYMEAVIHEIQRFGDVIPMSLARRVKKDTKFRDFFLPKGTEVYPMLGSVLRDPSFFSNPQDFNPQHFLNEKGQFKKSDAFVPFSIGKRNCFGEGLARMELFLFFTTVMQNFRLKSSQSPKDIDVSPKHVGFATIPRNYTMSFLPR

| Substance | target | assay | system | setting | Kd |
| --- | --- | --- | --- | --- | --- |
| Cc1cn([C@H]2C=C[C@@H](COP(=O)(O)OP(=O)(O)OP(=O)(O)O)O2)c(=O)[nH]c1=O | Gag-Pol polyprotein, reverse transcriptase (gag-pol, Human immunodeficiency virus type 1 group M subtype B, UniProt P04585) | nucleotide binding, pre-steady-state kinetics |  | added: 6 mM Mg2+ | 11.6 ± 2.3 µM |
| CSCC[C@@H]1NC(=O)[C@H](CCC(=O)O)NC(=O)[C@H](CCC(=O)O)NC(=O)[C@@H](NC(=O)[C@H](CC(=O)O)NC(=O)[C@H](CC(=O)O)NC(=O)[C@H](CC(C)C)NC(=O)[C@@H](NC(=O)[C@H](CO)NC(=O)CNC(=O)[C@H](CO)NC(=O)CNC(=O)[C@H](CCCCN)NC(=O)[C@H](CC(=O)O)NC(=O)[C@H](CC(=O)O)NC(=O)[C@H](CC(=O)O)NC(=O)[C@H](CC(=O)O)NC(=O)[C@H](CCCCN)NC(=O)[C@H](Cc2ccc(O)cc2)NC(=O)[C@H](CC(=O)O)NC(=O)[C@@H](N)CCSC)[C@@H](C)O)Cc2ccc(cc2)OCCSC[C@@H](C(=O)N[C@@H](CO)C(=O)N[C@@H](CC(=O)O)C(=O)N[C@H](C(=O)O)[C@@H](C)O)NC(=O)CNC(=O)[C@H](CC(=O)O)NC1=O | Sonic hedgehog protein (Homo sapiens, UniProt Q15465) | binding, ELISA, immobilised Shh |  | FLAG-tagged macrocycle | 3.6 µM |
| NC(=O)c1nc(F)c[nH]c1=O | Non-structural polyprotein pORF1, RNA-dependent RNA polymerase (Hepatitis E virus genotype 1, UniProt P33424) | binding, microscale thermophoresis |  |  | ~39 µM and 39 µM |
| CCCCCCCC(=O)OC[C@H](COP(=O)(O)O[C@H]1[C@H](O)[C@@H](OP(=O)(O)O)[C@H](OP(=O)(O)O)[C@@H](OP(=O)(O)O)[C@H]1O)OC(=O)CCCCCCC | Pleckstrin homology domain-containing family A member 7 (Homo sapiens, UniProt Q6IQ23) | binding, ITC |  | pH 7.6 | 8 µM |
| B1 (α-TTP F165D/M209D) | alpha-tocopherol transfer protein variants | binding, fluorescence titration |  | added: NBD-Toc | 0.029 µM |
| Nc1ncnc2c1nc(SCCNc1ccc([N+](=O)[O-])c3nonc13)n2[C@@H]1O[C@@H]2COP(=O)(O)O[C@H]2[C@H]1O | Cyclic nucleotide-gated potassium channel (Spirochaeta thermophila, UniProt G0GA88) | binding, fluorescence titration | amphipol A8-35 | single titration | 0.4 µM |
| O=P(O)(O)O[C@@H]1[C@H](O)[C@H](O)[C@@H](OP(=O)(O)O)[C@H](OP(=O)(O)O)[C@H]1O | Tyrosine-protein kinase ABL1, SH2 domain (Abl1, Mus musculus, UniProt P00520) | HSQC NMR titration |  | SH2 domain, 135 mM KCl | 500 ± 30 µM |
| O=C(O)c1ccc(F)cc1 | benA (Pseudomonas putida, UniProt Q88I40) | substrate binding, substrate, stopped-flow single turnover | reduced enzyme | pH 6.8, 4 °C, added: O2 saturated | 226 ± 40 µM |
| CO[C@H]1/C=C\C=C(/C)C(=O)NC2=CC(=O)C(NCCCCCCNC(=S)Nc3ccc(-c4c5ccc(=O)cc-5oc5cc(O)ccc45)c(C(=O)O)c3)=C(C[C@@H](C)C[C@H](OC)[C@H](O)[C@@H](C)/C=C(\C)[C@@H]1OC(N)=O)C2=O | Heat shock protein HSP 90-alpha (HSP90AA1, Homo sapiens, UniProt P07900) | binding, fluorescence polarization |  | full length protein | 0.509 µM |
| fibrinogen | Integrin alpha-M/beta-2 (Homo sapiens, UniProt P05107+P11215) | binding |  |  | 0.01 µM |
| c1ccc2ccccc2c1 | Cytochrome P450 2A6 (CYP2A6, Homo sapiens, UniProt P11509) | binding, absorbance |  | pH 7.4 | 2.9 µM |

Some of these lines once more:
| Substance | target | assay | system | setting | Kd |
| --- | --- | --- | --- | --- | --- |
| CO[C@H]1/C=C\C=C(/C)C(=O)NC2=CC(=O)C(NCCCCCCNC(=S)Nc3ccc(-c4c5ccc(=O)cc-5oc5cc(O)ccc45)c(C(=O)O)c3)=C(C[C@@H](C)C[C@H](OC)[C@H](O)[C@@H](C)/C=C(\C)[C@@H]1OC(N)=O)C2=O | Heat shock protein HSP 90-alpha (HSP90AA1, Homo sapiens, UniProt P07900) | binding, fluorescence polarization |  | full length protein | 0.509 µM |
